# Assay results from different studies.
# Values joined by “and” are separate records of one study, mostly repeats; a detail may differ. Numbers after ± are the reported error.
# Chain of UniProt Q9UNQ0 (whole entry, looked up): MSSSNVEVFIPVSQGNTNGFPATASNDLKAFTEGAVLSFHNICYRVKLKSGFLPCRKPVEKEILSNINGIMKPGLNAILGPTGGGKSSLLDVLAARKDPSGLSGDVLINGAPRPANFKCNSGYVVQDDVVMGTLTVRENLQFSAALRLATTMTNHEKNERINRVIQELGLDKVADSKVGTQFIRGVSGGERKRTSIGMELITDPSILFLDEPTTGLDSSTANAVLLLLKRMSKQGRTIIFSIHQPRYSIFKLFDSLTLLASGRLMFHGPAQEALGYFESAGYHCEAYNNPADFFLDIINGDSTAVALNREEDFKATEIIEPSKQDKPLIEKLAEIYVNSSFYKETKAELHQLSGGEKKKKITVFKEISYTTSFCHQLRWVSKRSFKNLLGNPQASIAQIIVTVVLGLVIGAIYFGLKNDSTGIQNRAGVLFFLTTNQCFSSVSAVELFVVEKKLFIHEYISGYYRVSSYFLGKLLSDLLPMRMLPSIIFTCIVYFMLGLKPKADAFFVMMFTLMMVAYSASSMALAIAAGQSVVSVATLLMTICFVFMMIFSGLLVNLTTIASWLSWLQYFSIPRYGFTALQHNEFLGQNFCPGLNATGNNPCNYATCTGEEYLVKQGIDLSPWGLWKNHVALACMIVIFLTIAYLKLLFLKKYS
SMILES,target or system,test,system,setting,how to read,quantity,result
[2H]C([2H])([18F])[C@]([2H])(N)C(=O)O,MIA PaCa-2 tumour model,,host not given,30 min,,maximum cellular uptake,4 ± 0.3 %ID/100 µg protein
O=C(NCc1cc(F)cc(F)c1)[C@@]1(O)CCN(c2ccc3[nH]ccc3c2)C1=O,,,sample C PDX mouse,"dose not given, RTV endpoint 500%",,median survival time,42 days
Cc1ccc(OCCN(C)C)cc1C(=O)N[C@H](C)c1cc(-c2ccn(C)n2)nc2ccccc12,Vero E6,,,15.62 µM,,viability,86.1% and 95.5% and 80.4%
Cc1nc2cc(Br)ccn2c1C(=O)NCc1ccc2oc(-c3ccc(OC(F)(F)F)cc3)nc2c1,Mycolicibacterium smegmatis,,,,,MIC90,> 100 µM
O=C1NC2(CC2)COc2ncc(F)cc2[C@H]2COCCN2c2ccn3ncc1c3n2,,,"Sprague-Dawley rat, female, uterus","oral, 2.5 mg/kg/day, 4 weeks",,organ weight,0.448 ± 0.094 g
COc1ccccc1-c1ccncc1C(=O)Nc1nnc(OCc2ccc(Cl)cc2)s1,DLD-1 parental (BRCA2 WT),,,"2 µM, average of 3 runs",relative to: untreated,colony survival,96.9%
CC(C)C[C@H](NC(=O)[C@H](CC(=O)O)NC(=O)[C@@H](NC(=O)[C@H](CCC(=O)O)NC(=O)[C@H](CCCCN)NC(=O)[C@H](Cc1ccc(O)cc1)NC(=O)[C@H](CCCCN)NC(=O)[C@H](Cc1c[nH]cn1)NC(=O)CNC(=O)CN)[C@@H](C)O)C(N)=O,HCV IRES RNA,"RNA cleavage, fluorescence",hepatitis C virus,"10 µM, with: H2O2 and ascorbate 1 mM, fluorescein-labelled HCV RNA 1 µM",,initial rate,423 ± 105 nM/min
NC[C@]1(CC(=O)O)CC[C@H]([18F])CC1,,PET kinetic modelling,"rhesus monkey, whole brain","dose not given, with: gabapentin pre-injection",relative to: baseline,VT change,-36%
CC(=O)NCCCC[C@@H]1NC(=O)[C@H](Cc2c[nH]c3c(C)cccc23)NC(=O)[C@H]([C@@H](C)O)NC(=O)[C@H](CC(N)=O)NC(=O)[C@@H](NC(C)=O)C(C)(C)SSC(C)(C)[C@@H](C(=O)N[C@@H](Cc2ccc(OCCN)cc2)C(=O)N[C@@H](Cc2ccc3ccccc3c2)C(=O)NC2(C(=O)N[C@@H](CCC(=O)O)C(=O)N[C@@H](CC(N)=O)C(=O)N[C@@H](Cc3cccnc3)C(=O)N(C)CC(N)=O)CCOCC2)NC1=O,"ABCG2 (Homo sapiens, UniProt Q9UNQ0)","transport, inhibitor",LLC-PK1 expressing ABCG2,"0.0558 µM, 90 min, with: [3H]prazosin",,efflux ratio,9.34
CCc1nc2ccc(Br)cn2c1C(=O)NCc1ccc2oc(-c3ccc(OC(F)(F)F)cc3)nc2c1,Mycolicibacterium smegmatis,,,,,MIC90,> 100 µM
CC[C@H](C)[C@H](NC(=O)[C@H](CC(=O)O)NC(=O)[C@@H](NC(=O)[C@@H]1CCCN1C(=O)[C@@H](N)CCCNC(=N)N)[C@@H](C)O)C(=O)N[C@@H](CCCCN)C(=O)N[C@H]1CSSC[C@@H]2NC(=O)[C@H](CCCNC(=N)N)NC(=O)CNC(=O)[C@H](CC(N)=O)NC(=O)[C@H]([C@@H](C)O)NC(=O)[C@H](CCCCN)NC(=O)CNC(=O)[C@H](Cc3ccccc3)NC(=O)[C@H](CCCNC(=N)N)NC(=O)[C@H](CO)NC(=O)[C@H](CCCCNC(=O)OCc3cc(OC)c(OC)cc3[N+](=O)[O-])NC(=O)[C@@H]3CSSC[C@@H](C(=O)N[C@@H](Cc4ccccc4)C(=O)O)NC(=O)[C@H](CC(=O)O)NC(=O)[C@H](CSSC[C@H](NC(=O)[C@H](CCC(N)=O)NC(=O)[C@H](Cc4ccc(O)cc4)NC(=O)[C@H](CO)NC(=O)[C@H](CCC(=O)O)NC(=O)[C@H](CO)NC1=O)C(=O)N[C@@H](Cc1ccccc1)C(=O)N1CCC[C@H]1C(=O)N[C@@H](C(C)C)C(=O)N3)NC(=O)[C@H](Cc1ccccc1)NC(=O)CNC(=O)[C@H](CC(N)=O)NC(=O)[C@H](C(C)C)NC2=O,human iPS-derived cardiomyocytes,,,"200 nM, no illumination, 1000 ms cycle",,APD70,257 ± 46.9 ms
Cc1cc(C(=O)Nc2nc3cccc(C)c3n2[C@H]2CCCCN(C(=O)/C=C/CN(C)C)C2)ccn1,Trypanosoma brucei brucei,,2T1 CLK1 overexpressing,"0.3125 µM, DMSO pretreated",relative to: maximum,survival,64.2% and 66% and 62.5% and 57.4%
CC[C@@H]1CN2CCc3c([nH]c4cccc(OC)c34)[C@@H]2C[C@@H]1/C(=C\OC)C(=O)OC,rabbit anti-mitragynine polyclonal IgG,"antigen binding, competitor, competitive indirect ELISA",10% methanol,90 min both antibody incubations,,IC50,0.8 µg/mL and 0.93 µg/mL
Cc1ccc(N2CCN(C)CC2)cc1C(=O)N[C@H](C)c1cc(-c2cnn(C)c2)nc2ccccc12,African green monkey cells,,,125 µM,,viability,16.5%
Cc1nc2cccc(OCC(C)(C)C(=O)NC(C)C)c2c(N)c1C(=O)[O-].[Na+],Escherichia coli,"reverse mutation, plate incorporation",WP2 uvrA,"0.051 mg/plate, without S9",,revertant colonies,30 ± 7 colonies/plate
Cc1cc(Oc2nc(N3CC[C@@H](c4ccncc4)C3)ncc2F)[nH]n1,Mycobacterium tuberculosis,OD,H37Rv PurF CRISPRi knockdown,"3.1e-05 µM, with: anhydrotetracycline low",,normalised growth,100% and 98%
CC(C)C[C@@H]1NC(=O)[C@@H]2CSSC[C@@H](C(=O)NCC(=O)O)NC(=O)[C@H](Cc3ccccc3)NC(=O)CNC(=O)[C@H](CC(N)=O)NC(=O)[C@@H]3CCCN3C(=O)CNC(=O)[C@@H]3CSSC[C@H](NC(=O)[C@H](CCCNC(=N)N)NC(=O)[C@H](CC(N)=O)NC(=O)[C@H](Cc4c[nH]cn4)NC(=O)[C@H](CCCCN)NC(=O)[C@H](CC(C)C)NC(=O)[C@H](CCCCN)NC(=O)[C@H](Cc4c[nH]cn4)NC(=O)[C@H](CC(N)=O)NC(=O)[C@H](CO)NC(=O)[C@H](CCC(N)=O)NC(=O)[C@@H](NC(=O)CN)CSSC[C@H](NC(=O)CNC(=O)[C@H](C)NC1=O)C(=O)N[C@@H](C(C)C)C(=O)N3)C(=O)N[C@@H](CCCCN)C(=O)N[C@@H](CCC(N)=O)C(=O)N[C@@H](CC(=O)O)C(=O)N[C@@H](CO)C(=O)N[C@@H](CC(=O)O)C(=O)N2,"HEK293, Wnt1-transfected",Wnt signalling,,,,IC50,> 100000 nM
COc1ccccc1-c1n[nH]c2nc(N[C@H]3CC[C@H](NS(=O)(=O)CC(C)C)CC3)ncc12,,"bead binding, competition bead pull-down, refers to: LINJ.33.1410",Leishmania donovani extract,10 µM,relative to: vehicle,relative abundance,1
CC(C)(C)C(=O)OCOP(=O)(OCOC(=O)C(C)(C)C)C1CCCN(O)C1=O (stereo not drawn),Malme-3M,,,,,GI50,425 nM
CC(C)CC(C(=O)N1CC2(CC1C#N)C(=O)Nc1ccccc12)N(C)C(=O)c1cc2c(F)cc(F)c(F)c2[nH]1 (stereo not drawn),Human coronavirus 229E,cytopathic effect,MRC5,0.125 µM,,inhibition,98.1%
COc1ccccc1-c1n[nH]c2nc(NC3CCN(C(=O)Cc4ccc(F)cc4F)CC3)ncc12,,"bead binding, competition bead pull-down, refers to: LINJ.29.0790",Leishmania donovani axenic amastigote extract,10 µM,relative to: vehicle,relative abundance,0.94

# Repeated from above:
SMILES,target or system,test,system,setting,how to read,quantity,result
CCc1nc2ccc(Br)cn2c1C(=O)NCc1ccc2oc(-c3ccc(OC(F)(F)F)cc3)nc2c1,Mycolicibacterium smegmatis,,,,,MIC90,> 100 µM
NC[C@]1(CC(=O)O)CC[C@H]([18F])CC1,,PET kinetic modelling,"rhesus monkey, whole brain","dose not given, with: gabapentin pre-injection",relative to: baseline,VT change,-36%
